Published values gathered from unrelated publications.
Every numbered part comes from another study and shows a few of its results, in no order.
Chain of UniProt Q99759 (whole entry, looked up): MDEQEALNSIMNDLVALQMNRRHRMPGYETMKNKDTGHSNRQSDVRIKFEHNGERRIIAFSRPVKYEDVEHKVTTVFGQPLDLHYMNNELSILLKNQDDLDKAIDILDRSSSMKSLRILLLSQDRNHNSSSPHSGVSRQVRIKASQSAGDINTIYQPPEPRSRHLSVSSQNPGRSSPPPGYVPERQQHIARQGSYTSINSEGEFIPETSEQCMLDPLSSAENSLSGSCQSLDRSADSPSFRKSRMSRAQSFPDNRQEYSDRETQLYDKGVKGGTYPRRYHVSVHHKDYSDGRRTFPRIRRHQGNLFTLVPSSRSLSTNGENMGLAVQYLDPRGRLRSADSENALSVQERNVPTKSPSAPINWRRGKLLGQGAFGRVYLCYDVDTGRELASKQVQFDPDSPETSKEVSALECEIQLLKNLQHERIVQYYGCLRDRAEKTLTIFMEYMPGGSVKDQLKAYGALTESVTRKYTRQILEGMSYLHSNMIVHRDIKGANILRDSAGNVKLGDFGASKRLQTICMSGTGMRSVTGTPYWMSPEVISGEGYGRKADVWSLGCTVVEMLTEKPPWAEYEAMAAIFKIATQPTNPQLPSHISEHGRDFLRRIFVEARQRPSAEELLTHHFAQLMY
Chain of UniProt O94804 (whole entry, looked up): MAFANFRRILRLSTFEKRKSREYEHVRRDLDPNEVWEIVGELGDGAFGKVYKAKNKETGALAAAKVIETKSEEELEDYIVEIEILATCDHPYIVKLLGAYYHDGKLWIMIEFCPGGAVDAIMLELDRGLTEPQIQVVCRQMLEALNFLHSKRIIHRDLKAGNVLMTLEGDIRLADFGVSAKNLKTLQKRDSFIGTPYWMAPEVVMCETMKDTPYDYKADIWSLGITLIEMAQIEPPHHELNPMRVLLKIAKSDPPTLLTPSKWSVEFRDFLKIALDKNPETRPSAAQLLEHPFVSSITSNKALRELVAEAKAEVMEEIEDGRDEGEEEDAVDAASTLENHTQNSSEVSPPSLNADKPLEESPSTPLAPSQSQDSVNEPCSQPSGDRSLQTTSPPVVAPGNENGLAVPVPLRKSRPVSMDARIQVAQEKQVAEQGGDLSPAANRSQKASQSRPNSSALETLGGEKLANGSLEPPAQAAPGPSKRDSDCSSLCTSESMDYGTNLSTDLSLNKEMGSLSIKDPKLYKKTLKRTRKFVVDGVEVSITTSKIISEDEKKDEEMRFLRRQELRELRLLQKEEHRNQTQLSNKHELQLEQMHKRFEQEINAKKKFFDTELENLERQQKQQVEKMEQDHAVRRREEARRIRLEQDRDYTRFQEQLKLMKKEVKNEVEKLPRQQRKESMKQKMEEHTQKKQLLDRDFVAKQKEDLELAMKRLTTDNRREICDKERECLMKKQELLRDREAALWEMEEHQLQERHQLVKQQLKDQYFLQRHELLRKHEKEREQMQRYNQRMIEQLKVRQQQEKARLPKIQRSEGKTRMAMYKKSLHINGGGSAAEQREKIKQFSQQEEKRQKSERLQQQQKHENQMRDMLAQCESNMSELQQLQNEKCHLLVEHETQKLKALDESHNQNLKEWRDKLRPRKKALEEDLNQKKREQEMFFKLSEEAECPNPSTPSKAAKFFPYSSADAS
Chain of UniProt O00238 (whole entry, looked up): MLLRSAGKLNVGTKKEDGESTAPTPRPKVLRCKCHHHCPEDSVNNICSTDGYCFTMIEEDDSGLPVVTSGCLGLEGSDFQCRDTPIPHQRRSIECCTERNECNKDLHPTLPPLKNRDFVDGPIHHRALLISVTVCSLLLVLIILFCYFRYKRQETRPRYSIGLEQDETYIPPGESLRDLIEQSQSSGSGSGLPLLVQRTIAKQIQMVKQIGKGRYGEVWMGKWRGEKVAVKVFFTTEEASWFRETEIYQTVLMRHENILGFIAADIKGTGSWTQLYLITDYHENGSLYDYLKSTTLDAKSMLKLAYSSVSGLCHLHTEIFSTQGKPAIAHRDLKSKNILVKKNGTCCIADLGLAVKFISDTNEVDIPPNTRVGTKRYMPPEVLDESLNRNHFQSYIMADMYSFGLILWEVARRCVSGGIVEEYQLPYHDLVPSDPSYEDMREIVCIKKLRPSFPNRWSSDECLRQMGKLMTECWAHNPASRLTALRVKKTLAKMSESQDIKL
Chain of UniProt Q96RR4 (whole entry, looked up): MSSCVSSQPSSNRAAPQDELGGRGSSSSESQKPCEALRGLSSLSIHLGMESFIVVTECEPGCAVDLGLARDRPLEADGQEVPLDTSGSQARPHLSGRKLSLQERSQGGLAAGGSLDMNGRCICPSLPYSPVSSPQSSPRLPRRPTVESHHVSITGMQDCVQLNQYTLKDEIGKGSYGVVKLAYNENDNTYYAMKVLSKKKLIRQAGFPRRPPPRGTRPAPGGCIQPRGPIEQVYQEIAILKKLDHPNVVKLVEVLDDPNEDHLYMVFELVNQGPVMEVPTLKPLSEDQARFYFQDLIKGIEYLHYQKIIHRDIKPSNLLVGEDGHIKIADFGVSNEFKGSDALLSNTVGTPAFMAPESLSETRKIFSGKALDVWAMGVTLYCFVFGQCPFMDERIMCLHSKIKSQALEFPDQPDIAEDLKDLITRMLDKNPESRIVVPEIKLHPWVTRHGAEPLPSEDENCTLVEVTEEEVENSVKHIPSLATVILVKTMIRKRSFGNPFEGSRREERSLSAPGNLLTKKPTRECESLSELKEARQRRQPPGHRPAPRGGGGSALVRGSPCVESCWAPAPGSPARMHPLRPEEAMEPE
Chain of UniProt P29597 (whole entry, looked up): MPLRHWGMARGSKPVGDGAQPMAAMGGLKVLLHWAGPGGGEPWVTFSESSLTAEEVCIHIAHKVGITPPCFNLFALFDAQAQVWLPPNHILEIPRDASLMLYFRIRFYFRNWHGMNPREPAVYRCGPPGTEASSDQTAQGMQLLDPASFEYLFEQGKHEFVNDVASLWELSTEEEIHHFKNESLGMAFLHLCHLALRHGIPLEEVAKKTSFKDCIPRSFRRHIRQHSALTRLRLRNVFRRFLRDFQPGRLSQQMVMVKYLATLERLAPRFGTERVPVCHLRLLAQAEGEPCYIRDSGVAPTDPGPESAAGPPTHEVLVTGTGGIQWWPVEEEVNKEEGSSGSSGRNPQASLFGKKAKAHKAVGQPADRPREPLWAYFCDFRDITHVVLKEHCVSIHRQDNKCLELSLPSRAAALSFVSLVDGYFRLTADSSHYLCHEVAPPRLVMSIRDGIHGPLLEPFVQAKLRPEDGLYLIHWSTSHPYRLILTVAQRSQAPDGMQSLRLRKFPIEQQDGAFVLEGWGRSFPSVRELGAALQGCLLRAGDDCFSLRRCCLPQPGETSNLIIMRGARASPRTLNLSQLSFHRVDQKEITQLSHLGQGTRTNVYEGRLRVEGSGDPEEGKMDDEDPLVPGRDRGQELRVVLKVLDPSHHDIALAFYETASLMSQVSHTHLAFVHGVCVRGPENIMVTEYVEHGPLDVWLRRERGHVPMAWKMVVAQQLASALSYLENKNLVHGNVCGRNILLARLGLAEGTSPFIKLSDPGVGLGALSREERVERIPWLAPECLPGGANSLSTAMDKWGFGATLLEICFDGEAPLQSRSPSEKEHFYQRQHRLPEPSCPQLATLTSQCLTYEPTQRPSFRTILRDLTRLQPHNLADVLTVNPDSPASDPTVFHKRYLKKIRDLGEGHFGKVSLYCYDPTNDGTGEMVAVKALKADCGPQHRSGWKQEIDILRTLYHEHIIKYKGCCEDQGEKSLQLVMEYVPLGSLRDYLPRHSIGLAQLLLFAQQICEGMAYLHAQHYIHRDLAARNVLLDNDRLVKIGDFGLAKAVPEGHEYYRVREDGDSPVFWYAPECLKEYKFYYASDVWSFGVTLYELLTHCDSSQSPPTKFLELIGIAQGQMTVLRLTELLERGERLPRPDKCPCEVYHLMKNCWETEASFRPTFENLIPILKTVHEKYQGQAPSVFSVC
Chain of UniProt P31751 (whole entry, looked up): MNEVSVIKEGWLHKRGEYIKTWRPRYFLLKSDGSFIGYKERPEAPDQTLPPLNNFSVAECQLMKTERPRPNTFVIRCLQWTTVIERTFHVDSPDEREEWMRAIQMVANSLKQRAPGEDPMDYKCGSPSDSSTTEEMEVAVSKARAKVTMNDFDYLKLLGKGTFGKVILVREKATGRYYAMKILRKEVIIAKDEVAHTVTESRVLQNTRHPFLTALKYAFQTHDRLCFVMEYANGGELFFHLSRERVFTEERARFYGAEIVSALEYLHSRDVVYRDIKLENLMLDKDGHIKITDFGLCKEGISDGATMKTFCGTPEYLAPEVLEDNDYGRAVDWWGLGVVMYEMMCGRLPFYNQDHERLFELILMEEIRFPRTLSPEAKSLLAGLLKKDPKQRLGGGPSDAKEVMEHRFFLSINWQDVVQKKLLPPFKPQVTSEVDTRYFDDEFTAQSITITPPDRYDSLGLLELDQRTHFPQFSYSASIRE
Chain of UniProt Q8N752 (whole entry, looked up): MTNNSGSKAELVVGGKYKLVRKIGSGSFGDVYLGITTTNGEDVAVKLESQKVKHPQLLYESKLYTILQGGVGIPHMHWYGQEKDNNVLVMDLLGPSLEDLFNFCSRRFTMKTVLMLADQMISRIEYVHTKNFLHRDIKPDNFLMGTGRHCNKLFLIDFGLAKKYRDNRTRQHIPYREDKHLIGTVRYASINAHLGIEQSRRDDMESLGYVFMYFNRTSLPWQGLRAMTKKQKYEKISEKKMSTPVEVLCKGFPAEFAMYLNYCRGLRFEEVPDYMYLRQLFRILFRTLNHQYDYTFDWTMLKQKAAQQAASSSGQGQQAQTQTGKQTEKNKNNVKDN

Block 1
SMILES: CCN(CC)CCNC(=O)c1c(C)[nH]c(/C=C2\C(=O)Nc3ccc(Cl)cc32)c1C
Observed: enzyme activity
Mode: inhibitor
Tested at: 0.5 µM
Baseline: control
Endpoint: remaining activity
Serine/threonine-protein kinase 10 (STK10, Homo sapiens, UniProt O94804): 7.11%
Death-associated protein kinase 2 (DAPK2, Homo sapiens, UniProt Q9UIK4): 86.7%
TGF-beta receptor type-1 (TGFBR1, Homo sapiens, UniProt P36897): 95.5%
Mitogen-activated protein kinase kinase kinase 3 (MAP3K3, Homo sapiens, UniProt Q99759): 30.6%
Protein kinase C beta type, isoform beta-I (PRKCB, Homo sapiens, UniProt P05771): 98.1%
Protein kinase C alpha type (PRKCA, Homo sapiens, UniProt P17252): 93.1%
Serine/threonine-protein kinase Nek2 (NEK2, Homo sapiens, UniProt P51955): 77.2%
Calcium/calmodulin-dependent protein kinase kinase 2 (CAMKK2, Homo sapiens, UniProt Q96RR4): 48%

Block 2
Target: Protein C-ets-1 (ETS1, Homo sapiens, UniProt P14921, residues 1-441, K379A, full length assumed)
Method: protein-binding microarray
Form: double-stranded DNA, one strand shown
Matrix: in vitro
Tested at: not given
Setting: k-mer, scored over probes, only values ≥0.25
Reading: higher = stronger binding
Endpoint: E-score
Target sequence (chain): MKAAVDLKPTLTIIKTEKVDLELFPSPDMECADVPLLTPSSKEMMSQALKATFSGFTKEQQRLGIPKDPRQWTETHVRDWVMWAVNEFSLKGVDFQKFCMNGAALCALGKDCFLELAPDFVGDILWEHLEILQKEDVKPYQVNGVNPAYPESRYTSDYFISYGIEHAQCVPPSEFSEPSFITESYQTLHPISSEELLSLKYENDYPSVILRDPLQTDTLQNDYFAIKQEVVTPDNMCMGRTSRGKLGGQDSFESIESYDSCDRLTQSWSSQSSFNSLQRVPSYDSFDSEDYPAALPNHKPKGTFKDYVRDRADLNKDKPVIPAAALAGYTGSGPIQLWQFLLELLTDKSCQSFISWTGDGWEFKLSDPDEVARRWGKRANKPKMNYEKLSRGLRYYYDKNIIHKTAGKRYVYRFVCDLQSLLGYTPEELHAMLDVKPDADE
CGGCGGTA: 0.301
ATACCGAC: 0.3
CGACATTA: 0.272
AACCGACG: 0.351
CCCGGTCG: 0.444
CCGGTTCC: 0.308
AACCTATA: 0.272
ATTTACCG: 0.327

Block 3
Target: RING finger protein unkempt homolog, zinc fingers 1-6, GST-SBP tag (UNK, Homo sapiens, UniProt Q9C0B0, residues 30-357)
Chain of UniProt Q9C0B0 (30-357, looked up): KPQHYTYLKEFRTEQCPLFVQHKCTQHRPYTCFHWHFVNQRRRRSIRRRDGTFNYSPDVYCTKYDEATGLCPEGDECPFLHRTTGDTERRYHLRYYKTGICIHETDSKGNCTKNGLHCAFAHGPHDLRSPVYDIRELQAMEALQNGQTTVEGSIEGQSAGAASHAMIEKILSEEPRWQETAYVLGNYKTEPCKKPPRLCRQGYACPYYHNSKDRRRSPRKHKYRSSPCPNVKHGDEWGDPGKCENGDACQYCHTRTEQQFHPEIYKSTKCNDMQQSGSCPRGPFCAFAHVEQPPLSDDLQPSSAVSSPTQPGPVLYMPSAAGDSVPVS
Method: RNA Bind-n-Seq
Form: RNA
Matrix: in vitro
Tested at: not given
Setting: RNA with constant flanks, human and mouse sites, ends assumed
Baseline: input RNA pool
Reading: higher = stronger binding
Endpoint: bound/input enrichment
All sequences stand within: GGGAGUUCUACAGUCCGACGAUC … CAACAGAGGAUUGAGCAUCA
ACAAAGCACUUCAUCUAUUUUUACUUGGGUCAAGUUGCAAUCCUCCUCUUCAAGUCGGGCUAGGUGGCCGAGGCGAAGGUGUCCGUGGCGGCGGCAGCGAUGGCAAGCAGGCGGCGUUGC: 0.328 ratio
UGGCUACAAAAGAAGAGAAGAAUAAAACUCUAUCAGAAACCAGAAGGAAAUCACAUUAUCAAGGUUGGAAUUUAUCUUUUGGAAGCUGGCCUAGCAAAACUAGACUUCUUGAGUGAUGCA: 0.345 ratio
CUGGAAUUUAAGGACUUGGUGCAGCUCACUCAUUGCCAUGACCCGGAAAUGGACUUCUUUGAGAACAUGAAGCACAUUCAGAUCCACAGACGAGCAAGAGCCCUGAAGAAACUGGCUAAG: 0.163 ratio
AAUGGUUUGCACGACUUUGAACAUAUACUAUCCAUGCUGAUGGGACAGGAUCCAAUAUGAAUAUAAAUGAUGGAGGAAGACGACGCUUUGAAGAUAAUGAACAUACAUUACGGAUAUAUC: 0.219 ratio
CAUCCUGGAGUCCAGCGUAGCCACCCACAAUCUGUUCUCAGAUUCCUAAUCAUUCCAGAAGUAUUAAAUAUCAUUUCUACAAAUCUCGGCAGGAUCCGUGUAGGGGCCUUAAUGACCACC: 0.263 ratio
GUUGGAGAUACUCAGGUGGUGGUUUUUAAGCAUGAAAAGGAAGAUGGCGCCAUUUCUACCAUAGUACUUCGAGGCUCUACAGACAAUCUGAUGGAUGACAUAGAAAGGGCAGUAGACGAU: 0.857 ratio
UCAGACAUCUAUGUGUGCAUGAUCUCCUAUGCGCACAACGUGGCCGCACAGGGCAAAUACAUCGCCAUUGCCAGCACCACUGUAGAGACUGCAGAACCAGAAAAGGAAGUUGAGCCUGCA: 0.21 ratio
GCUAAAGAGUCCAUGGAUAAGAACAAGAUGGGCUUGAAAGGCUAUAAAACCCCUUACACCGAUGUAAAUAUUGUGACCAUUCGAGAGAACACAGAAGGAGAAUACAGUGGAAUUGAGCAU: 0.23 ratio

Block 4
SMILES: COc1cc(-c2cn(C3CCc4ccccc4N(CC(F)(F)F)C3=O)nn2)ccc1-n1ccc(C)n1 (stereo not shown)
Observed: cell-free assay
Method: competition with immobilised ligand
Tested at: 1 µM
Endpoint: remaining binding
Aurora kinase C (AURKC, Homo sapiens, UniProt Q9UQB9): 100%
Tyrosine-protein kinase HCK (HCK, Homo sapiens, UniProt P08631): 100%
Casein kinase I isoform alpha-like (CSNK1A1L, Homo sapiens, UniProt Q8N752): 100%
Casein kinase I isoform delta (CSNK1D, Homo sapiens, UniProt P48730): 100%
Mitogen-activated protein kinase kinase kinase 3 (MAP3K3, Homo sapiens, UniProt Q99759): 88%
Activin receptor type-1B (ACVR1B, Homo sapiens, UniProt P36896): 83%
Serine/threonine-protein kinase/endoribonuclease IRE1 (ERN1, Homo sapiens, UniProt O75460): 86%
Bone morphogenetic protein receptor type-1B (BMPR1B, Homo sapiens, UniProt O00238): 100%
Non-receptor tyrosine-protein kinase TYK2, JH1 (TYK2, Homo sapiens, UniProt P29597): 100%
RAC-beta serine/threonine-protein kinase (AKT2, Homo sapiens, UniProt P31751): 93%
Serine/threonine-protein kinase TAO3 (TAOK3, Homo sapiens, UniProt Q9H2K8): 72%
Serine/threonine-protein kinase 10 (STK10, Homo sapiens, UniProt O94804): 100%
Serine/threonine-protein kinase MRCK beta (CDC42BPB, Homo sapiens, UniProt Q9Y5S2): 100%

Repeated from above (block 4):
Aurora kinase C (AURKC, Homo sapiens, UniProt Q9UQB9): 100%
Bone morphogenetic protein receptor type-1B (BMPR1B, Homo sapiens, UniProt O00238): 100%
Serine/threonine-protein kinase MRCK beta (CDC42BPB, Homo sapiens, UniProt Q9Y5S2): 100%
Casein kinase I isoform delta (CSNK1D, Homo sapiens, UniProt P48730): 100%
Serine/threonine-protein kinase TAO3 (TAOK3, Homo sapiens, UniProt Q9H2K8): 72%
Serine/threonine-protein kinase/endoribonuclease IRE1 (ERN1, Homo sapiens, UniProt O75460): 86%
